Measurements pooled from the literature.
“And” joins repeats or separate records; there may be more than shown. ± gives the spread as reported.

Molecule	test	system	conditions	measurement	value
CC(C)C[C@H](NC(=O)[C@H](Cc1ccc(O)cc1)NC(=O)[C@@H](CCCNC(=N)N)NC(=O)[C@@H](CO)NC(=O)[C@H](Cc1ccccc1)NC(=O)[C@H](CC1CCCCC1)NC(=O)[C@H](CC(=O)O)NC(=O)CN1CCN(CC(=O)O)CCN(CC(=O)O)CCN(CC(=O)O)CC1)C(=O)N[C@@H](Cc1c[nH]c2ccccc12)C(=O)N[C@@H](CO)C(=O)O [copper-64 labelled]		human, heart	concentration not given, 24 h	activity concentration	366 Bq/mL and 297 Bq/mL and 506 Bq/mL and 361 Bq/mL and 535 Bq/mL and 459 Bq/mL
CC(C)C[C@H](NC(=O)[C@@H](CCCCNC(=O)[C@@H](Cc1ccccc1)NC(=O)CCCCCNC(=O)CN1CCN(CC(=O)O)CCN(CC(=O)O)CCN(CC(=O)O)CC1)NC(=O)[C@H](Cc1ccc(O)cc1)NC(=O)[C@H](CO)NC(=O)[C@H](Cc1c[nH]c2ccccc12)NC(=O)[C@H](Cc1c[nH]cn1)NC(=O)[C@@H]1CCC(=O)N1)C(=O)N[C@@H](CCCNC(=N)N)C(=O)N1CCC[C@H]1C(=O)NCC(N)=O [indium-111 labelled]		athymic nude mouse, female, pituitary	intravenous, 0.037 MBq, 1 h	tissue uptake	33.7 ± 4.53 %ID/g
CC(C)C[C@@H](NC(=O)[C@@H](CC(C)C)NC(=O)[C@@H](CC(=O)O)NC(=O)[C@@H](CC(C)C)NC(=O)[C@@H](CC(C)C)NC(=O)[C@@H](CC(C)C)NC(=O)[C@H](NC(=O)[C@@H](CC(=O)O)NC(=O)[C@H](NC(=O)[C@H]1CCCN1C(=O)[C@@H](Cc1ccccc1)NC(=O)[C@@H](CC(C)C)NC(=O)[C@@H](CC(C)C)NC(=O)[C@@H](CC(=O)O)NC(=O)[C@@H](CC(C)C)NC(=O)[C@@H](Cc1ccc(O)cc1)NC(=O)[C@@H](C)NC(=O)[C@@H](CCCNC(=N)N)NC(=O)[C@@H](Cc1c[nH]c2ccccc12)NC(=O)[C@H]1CCCN1C(=O)[C@@H](CC(N)=O)NC(=O)[C@@H](CCC(N)=O)NC(=O)[C@@H](CC(=O)O)NC(=O)[C@@H](CC(=O)O)NC(=O)[C@@H](CSC1CC(=O)N(CCNC(=O)CN2CCN(CC(=O)O)CCN(CC(=O)O)CC2)C1=O)NC(=O)[C@@H](C)N)[C@H](C)O)[C@H](C)O)C(=O)N[C@H](Cc1c[nH]c2ccccc12)C(=O)O (stereo partly drawn) [fluorine-18 labelled]		male nude mice, PC-3 xenograft, tumor	intravenous, 4 h	tissue uptake	4.02 %ID/g
CC(C)C[C@H](NC(=O)[C@@H](CCCCNC(=O)CCCCCCCCCCNC(=O)CN1CCN(CC(=O)O)CCN(CC(=O)O)CCN(CC(=O)O)CC1)NC(=O)[C@H](Cc1ccc(O)cc1)NC(=O)[C@H](CO)NC(=O)[C@H](Cc1c[nH]c2ccccc12)NC(=O)[C@H](Cc1cnc[nH]1)NC(=O)[C@@H]1CCC(=O)N1)C(=O)N[C@@H](CCCN=C(N)N)C(=O)N1CCC[C@H]1C(=O)NCC(N)=O [indium-111 labelled]		athymic nude mouse, female, whole blood	intravenous, 0.037 MBq, 0.5 h	tissue uptake	5.81 ± 0.65 %ID/g
C=C1CC[C@H](OCCCNC(=O)CCOCCOCCOCCOCCOCCOCCOCCOCCOCCOCCOCCOCCOCCOCCOCCOCCOCCOCCOCCOCCOCCOCCOCCOCCOCCOCCOCCOCCOCCOCCOCCOCCOCCOCCOCCOCCNC(=O)CCN2C(=O)CC(SC[C@H](NC(=O)[C@H](Cc3ccccc3)NC(=O)[C@H](CC(N)=O)NC(=O)[C@H](Cc3c[nH]cn3)NC(=O)[C@@H](NC(=O)[C@H](CC(=O)O)NC(=O)[C@H](CCC(N)=O)NC(=O)[C@H](CC(C)C)NC(=O)[C@H](CCCCN)NC(=O)[C@H](CCCCN)NC(=O)[C@H](CCCNC(=N)N)NC(=O)[C@H](CC(C)C)NC(=O)[C@H](Cc3c[nH]c4ccccc34)NC(=O)[C@H](CCC(=O)O)NC(=O)[C@@H](NC(=O)[C@H](CCCNC(=N)N)NC(=O)[C@H](CCC(=O)O)NC(=O)[C@H](CCSC)NC(=O)[C@H](CO)NC(=O)[C@H](CC(N)=O)NC(=O)[C@H](CC(C)C)NC(=O)[C@H](Cc3c[nH]cn3)NC(=O)[C@H](CCCCN)NC(=O)CNC(=O)[C@H](CC(C)C)NC(=O)[C@H](CC(N)=O)NC(=O)[C@H](Cc3c[nH]cn3)NC(=O)[C@H](CCSC)NC(=O)[C@H](CC(C)C)NC(=O)[C@H](CCC(N)=O)NC(=O)[C@@H](NC(=O)[C@H](CCC(=O)O)NC(=O)[C@H](CO)NC(=O)[C@@H](NC(=O)[C@@H](N)CO)C(C)C)[C@@H](C)CC)C(C)C)C(C)C)C(=O)O)C2=O)C/C1=C/C=C1\CCC[C@]2(C)[C@@H]([C@H](C)CCCC(C)(C)O)CC[C@@H]12 (stereo partly drawn)		male cynomolgus monkey, plasma	subcutaneous, 0.007 mg/kg, single dose	half-life	24 h
CCCC[C@H](NC(=O)COCCOCCNC(=O)CN1CCN(CC(=O)O)CCN(CC(=O)O)CC1)C(=O)N[C@H]1CC(=O)NCCCC[C@@H](C(N)=O)NC(=O)[C@H](Cc2c[nH]c3ccccc23)NC(=O)[C@H](CCCNC(=N)N)NC(=O)[C@@H](Cc2ccccc2)NC(=O)[C@H](Cc2c[nH]cn2)NC1=O [technetium-99m labelled]		C57 mouse, pancreas	intravenous, 0.037 MBq, 2 h	tissue uptake	0.06 ± 0.07 %ID/g
nucleophosmin T78E	far-UV CD, CDSSTR	Tris buffer, NaCl	pH 7.5, room temperature	beta-strand content	14%
CC[C@H](C)[C@H](NC(=O)[C@H](CS)NC(=O)[C@H](CCCCN)NC(=O)[C@H](Cc1ccc(O)cc1)NC(=O)[C@H](CC(C)C)NC(=O)[C@H](CCC(=O)O)NC(=O)CNC(=O)[C@H](C)NC(=O)[C@H](CCCCN)NC(=O)[C@H](CC(C)C)NC(=O)[C@H](C)NC(=O)[C@H](C)NC(=O)[C@H](CC(N)=O)NC(=O)[C@H](C)NC(=O)[C@H](CCCNC(=N)N)NC(=O)[C@H](CCCNC(=N)N)NC(=O)CCOCCOCCOCCOCCNC(=O)CC[N+]1=C(C=CC=CC=CC=C2N(CCC(=O)O)c3ccc4ccccc4c3C2(C)C)C(C)(C)c2c1ccc1ccccc21)C(=O)N[C@@H](CC(C)C)C(=O)N[C@@H](Cc1ccc(O)cc1)C(N)=O	NIR fluorescence imaging	C57BL/6 mouse K/BxN serum-transfer arthritis, whole body	injection, dose not given, after injection	duration of fluorescence increase	2 h
C[C@@H](O)[C@@H]1NC(=O)[C@H](CCCCN)NC(=O)[C@@H](Cc2c[nH]c3ccccc23)NC(=O)[C@H](Cc2ccc(O)cc2)NC(=O)[C@@H](NC(=O)[C@@H](Cc2ccccc2)NC(=O)CN2CCN(CC(=O)O)CCN(CC(=O)O)CCN(CC(=O)O)CC2)CSSC[C@@H](C(=O)N[C@H](CO)[C@@H](C)O)NC1=O [gallium-67 labelled]		male ICR mouse, stomach	intravenous, 11 kBq, 1 h, radiolabelled	tissue uptake	4.37 ± 0.97 %ID

Excerpt of the above:
Molecule	test	system	conditions	measurement	value
C=C1CC[C@H](OCCCNC(=O)CCOCCOCCOCCOCCOCCOCCOCCOCCOCCOCCOCCOCCOCCOCCOCCOCCOCCOCCOCCOCCOCCOCCOCCOCCOCCOCCOCCOCCOCCOCCOCCOCCOCCOCCOCCOCCNC(=O)CCN2C(=O)CC(SC[C@H](NC(=O)[C@H](Cc3ccccc3)NC(=O)[C@H](CC(N)=O)NC(=O)[C@H](Cc3c[nH]cn3)NC(=O)[C@@H](NC(=O)[C@H](CC(=O)O)NC(=O)[C@H](CCC(N)=O)NC(=O)[C@H](CC(C)C)NC(=O)[C@H](CCCCN)NC(=O)[C@H](CCCCN)NC(=O)[C@H](CCCNC(=N)N)NC(=O)[C@H](CC(C)C)NC(=O)[C@H](Cc3c[nH]c4ccccc34)NC(=O)[C@H](CCC(=O)O)NC(=O)[C@@H](NC(=O)[C@H](CCCNC(=N)N)NC(=O)[C@H](CCC(=O)O)NC(=O)[C@H](CCSC)NC(=O)[C@H](CO)NC(=O)[C@H](CC(N)=O)NC(=O)[C@H](CC(C)C)NC(=O)[C@H](Cc3c[nH]cn3)NC(=O)[C@H](CCCCN)NC(=O)CNC(=O)[C@H](CC(C)C)NC(=O)[C@H](CC(N)=O)NC(=O)[C@H](Cc3c[nH]cn3)NC(=O)[C@H](CCSC)NC(=O)[C@H](CC(C)C)NC(=O)[C@H](CCC(N)=O)NC(=O)[C@@H](NC(=O)[C@H](CCC(=O)O)NC(=O)[C@H](CO)NC(=O)[C@@H](NC(=O)[C@@H](N)CO)C(C)C)[C@@H](C)CC)C(C)C)C(C)C)C(=O)O)C2=O)C/C1=C/C=C1\CCC[C@]2(C)[C@@H]([C@H](C)CCCC(C)(C)O)CC[C@@H]12 (stereo partly drawn)		male cynomolgus monkey, plasma	subcutaneous, 0.007 mg/kg, single dose	half-life	24 h
